Assay results gathered from unrelated publications.
Each line is one published result; not all experiments were run side by side. “And” joins repeats or separate records; there may be more than shown. ± marks the error that the study gave.

SMILES	assay	test system	setting	how to read	quantity	value
[2H]C([2H])([2H])C1(C([2H])([2H])[2H])NC(=O)N(c2ccc(F)c(C(C)(F)F)c2)C1=O		Sprague-Dawley rat, male and female	oral, single dose, preliminary		NOAEL	~25 mg/kg
COCC1CN(C2CCN(c3cc(OC)c(Nc4ncc(Br)c(Nc5ccc6c(c5P(C)(C)=O)OCCO6)n4)cc3C)CC2)C1	phase 1 trial	human, advanced EGFR-mutant NSCLC	oral, dose not given		treatment-related AEs leading to death	0%
CC(=O)N[C@H](C(=O)N[C@@H](CCCC(=O)OC(C)(C)C)C(=O)N[C@@H](CCC1CCCCC1)C(=O)N[C@@H](CC(=O)O)C(=O)COC(=O)c1c(C)cccc1C)C(C)(C)C		C57BL/6N mouse, female, whole blood	intraperitoneal, dose not given, 24 h		blood concentration	26.2 µM and 35.4 µM and 40.9 µM
O=C(O)CC[C@H](NC(=O)[C@H](CCC(=O)O)NC(=O)[C@H](CCC(=O)O)NC(=O)[C@H](CCC(=O)O)NC(=O)[C@H](CCC(=O)O)NC(=O)CNC(=O)[C@H](CCC(=O)O)NC(=O)CNC(=O)[C@H](CCC(=O)O)NC(=O)[C@@H](Cc1ccccc1)NC(=O)[C@@H](Cc1ccccc1)NC(=O)Cc1ccc2ccccc2c1)C(=O)O	circular dichroism	PBS	500 µM, pH 9, above CMC		first negative CD peak wavelength	202 nm
C[C@@H]1COCCN1c1nc(NCc2cccnc2C(F)(F)F)c2cccnc2n1		human hepatocytes	donor		intrinsic clearance	1.7 µL/min/10⁶ cells
CC(C)C[C@@H](NC(=O)[C@@H](CCCNC(=N)N)NC(=O)[C@@H](Cc1c[nH]cn1)NC(=O)[C@@H](Cc1c[nH]c2ccccc12)NC(=O)[C@@H](Cc1c[nH]cn1)NC(=O)[C@@H](Cc1ccccc1)NC(=O)[C@H](NC(=O)[C@@H](Cc1ccc(O)cc1)NC(=O)CNC(=O)CNC(=O)CCOCCOCCOCCNC(=O)CN1CCN(CC(=O)O)CCN(CC(=O)O)CC1)[C@H](C)O)C(=O)N[C@H](CC(N)=O)C(=O)N1CCC[C@@H]1C(=O)O [gallium-68 labelled]		human male, from C57BL/6 mouse, osteogenic cells			absorbed dose	0.0131 ± 0.000116 mSv/MBq
CC[C@H](C)[C@H](NC(=O)[C@H](CCCCN)NC(=O)CNC(=O)[C@H](CC(C)C)NC(=O)[C@H](Cc1ccccc1)NC(=O)[C@H](CCCCN)NC(=O)[C@H](CO)NC(=O)[C@H](Cc1ccccc1)NC(=O)[C@H](Cc1c[nH]c2ccccc12)NC(=O)[C@H](CCC(N)=O)NC(=O)[C@@H](NC(=O)[C@H](Cc1ccccc1)NC(=O)CCCCCNC(=O)CN1CCN(CC(=O)O)CCN(CC(=O)O)CCN(CC(=O)O)CC1)C(C)C)C(=O)N[C@@H](CCC(=O)O)C(=O)N1CCC[C@H]1C(=O)N[C@@H](CC(=O)O)C(=O)N[C@H](C(=O)N[C@@H](CO)C(=O)N[C@@H](CCC(N)=O)C(=O)N[C@H](C(=O)N[C@@H](CCC(N)=O)C(=O)N[C@@H](CC(=O)O)C(=O)N1CCC[C@H]1C(=O)N[C@@H](CC(N)=O)C(=O)N[C@@H](CC(=O)O)C(=O)N[C@@H](CCC(N)=O)C(=O)N[C@@H](Cc1ccc(O)cc1)C(=O)N[C@@H](CCC(=O)O)C(=O)N1CCC[C@H]1C(=O)N[C@@H](Cc1ccccc1)C(=O)O)C(C)C)C(C)C [copper-64 labelled]		BALB/c mice, male, CT26 tumour-bearing, large intestine	2 h, anti-PD1 plus anti-CTLA4 treated		tissue uptake	3.8 ± 1.1 %ID/g
CSCC[C@H](N)C(=O)N[C@@H](C)C(=O)N[C@@H](CCCNC(=N)N)C(=O)N[C@@H](CCCNC(=N)N)C(=O)N[C@@H](CC(=O)O)C(=O)N[C@@H](CCCCN)C(=O)N[C@H](C(=O)N[C@@H](CC(=O)O)C(=O)N[C@@H](Cc1ccccc1)C(=O)N[C@@H](C)C(=O)N[C@@H](CCCNC(=N)N)C(=O)N[C@@H](CCCNC(=N)N)C(=O)N[C@@H](CCCNC(=N)N)C(=O)N[C@@H](CCCNC(=N)N)C(=O)NCCCCCC(=O)NCCCCC(NC(=O)CCCCCNC(=O)[C@H](CCCNC(=N)N)NC(=O)[C@H](CCCNC(=N)N)NC(=O)[C@H](CCCNC(=N)N)NC(=O)[C@H](CCCNC(=N)N)NC(=O)[C@H](C)NC(=O)[C@H](Cc1ccccc1)NC(=O)[C@H](CC(=O)O)NC(=O)[C@@H](NC(=O)[C@H](CCCCN)NC(=O)[C@H](CC(=O)O)NC(=O)[C@H](CCCNC(=N)N)NC(=O)[C@H](CCCNC(=N)N)NC(=O)[C@H](C)NC(=O)[C@@H](N)CCSC)[C@@H](C)O)C(=O)NCCCCC(NC(=O)C(CCCCNC(=O)CCCCCNC(=O)[C@H](CCCNC(=N)N)NC(=O)[C@H](CCCNC(=N)N)NC(=O)[C@H](CCCNC(=N)N)NC(=O)[C@H](CCCNC(=N)N)NC(=O)[C@H](C)NC(=O)[C@H](Cc1ccccc1)NC(=O)[C@H](CC(=O)O)NC(=O)[C@@H](NC(=O)[C@H](CCCCN)NC(=O)[C@H](CC(=O)O)NC(=O)[C@H](CCCNC(=N)N)NC(=O)[C@H](CCCNC(=N)N)NC(=O)[C@H](C)NC(=O)[C@@H](N)CCSC)[C@@H](C)O)NC(=O)CCCCCNC(=O)[C@H](CCCNC(=N)N)NC(=O)[C@H](CCCNC(=N)N)NC(=O)[C@H](CCCNC(=N)N)NC(=O)[C@H](CCCNC(=N)N)NC(=O)[C@H](C)NC(=O)[C@H](Cc1ccccc1)NC(=O)[C@H](CC(=O)O)NC(=O)[C@@H](NC(=O)[C@H](CCCCN)NC(=O)[C@H](CC(=O)O)NC(=O)[C@H](CCCNC(=N)N)NC(=O)[C@H](CCCNC(=N)N)NC(=O)[C@H](C)NC(=O)[C@@H](N)CCSC)[C@@H](C)O)C(N)=O)[C@@H](C)O (stereo partly drawn)		C57BL/6 mouse female, ovary	dose not given, 3 h	baseline: total	tissue distribution	0.17% and 1.77% and 0.86%
C/C(=N\OCCCN1CCCCC1)c1ccc(C(F)(F)F)cc1		rhesus monkey	dose not given, after dosing		QRS interval	42 ms and 40 ms
CCCCCCCCCCCCCCCC(=O)N[C@@H](CCC(=O)NCCOCCOCCC(=O)NCCOCCOCCC(=O)NCCCC[C@H](NC(=O)[C@H](CC(=O)O)NC(=O)[C@H](CC(C)C)NC(=O)[C@H](Cc1ccc(O)cc1)NC(=O)[C@H](CCCCN)NC(=O)[C@H](CO)NC(=O)[C@H](Cc1ccc(O)cc1)NC(=O)[C@H](CC(=O)O)NC(=O)[C@H](CO)NC(=O)[C@@H](NC(=O)[C@H](Cc1ccccc1)NC(=O)[C@@H](NC(=O)CNC(=O)[C@H](CCC(N)=O)NC(=O)[C@@H](CO)NC(=O)[C@@H](N)Cc1c[nH]cn1)[C@@H](C)O)[C@@H](C)O)C(=O)N[C@@H](CCCNC(=N)N)C(=O)N[C@@H](CCCNC(=N)N)C(=O)N[C@@H](C)C(=O)N[C@@H](CCC(N)=O)C(=O)N[C@@H](CC(=O)O)C(=O)N[C@@H](Cc1ccccc1)C(=O)N[C@H](C(=O)N[C@@H](CCC(N)=O)C(=O)N[C@@H](Cc1c[nH]c2ccccc12)C(=O)N[C@@H](CC(C)C)C(=O)N[C@@H](CC(C)C)C(=O)N[C@@H](CC(N)=O)C(=O)N[C@H](C(=O)NCC(=O)NCC(=O)N1CCC[C@H]1C(=O)N[C@@H](CO)C(=O)N[C@@H](CO)C(=O)NCC(=O)N[C@@H](C)C(=O)N1CCC[C@H]1C(=O)N1CCC[C@H]1C(=O)N1CCC[C@H]1C(=O)N[C@@H](CO)C(N)=O)[C@@H](C)O)C(C)C)C(=O)O		rhesus monkey, male	subcutaneous, 60 µg/kg once daily, 28 days		total cholesterol	2.21 ± 0.44 mmol/L
O=C1NC2(CC2)COc2ncc(F)cc2[C@H]2COCCN2c2ccn3ncc1c3n2		Sprague-Dawley rat, male, heart	oral, 5 mg/kg/day, 4 weeks, end of treatment		organ-to-body weight ratio	0.367 ± 0.033%
CC(C)[C@H](NC(=O)[C@H](Cc1c[nH]c2ccccc12)NC(=O)[C@H](CCCNC(=N)N)NC(=O)[C@H](CCCNC(=N)N)NC(=O)[C@@H](NC(=O)[C@@H](NC(=O)[C@H](CCCNC(=N)N)NC(=O)[C@@H](NC(=O)[C@@H](NC(=O)[C@H](CCCNC(=N)N)NC(=O)[C@H](CCCNC(=N)N)NC(=O)[C@@H](NC(=O)[C@H](Cc1c[nH]c2ccccc12)NC(=O)[C@H](CCCNC(=N)N)NC(=O)[C@H](CCCNC(=N)N)NC(=O)[C@@H](NC(=O)[C@H](CCCNC(=N)N)NC(=O)[C@H](CCCNC(=N)N)NC(=O)[C@@H](NC(=O)[C@H](Cc1c[nH]c2ccccc12)NC(=O)[C@H](CCCNC(=N)N)NC(=O)[C@@H](N)CCCNC(=N)N)C(C)C)C(C)C)C(C)C)C(C)C)C(C)C)C(C)C)C(C)C)C(=O)N[C@@H](CCCNC(=N)N)C(=O)N[C@@H](CCCNC(=N)N)C(=O)O	item: liver	mice	intravenous, 30 mg/kg	baseline: body weight	organ weight	4.93%

Excerpt of the above:
SMILES	assay	test system	setting	how to read	quantity	value
O=C1NC2(CC2)COc2ncc(F)cc2[C@H]2COCCN2c2ccn3ncc1c3n2		Sprague-Dawley rat, male, heart	oral, 5 mg/kg/day, 4 weeks, end of treatment		organ-to-body weight ratio	0.367 ± 0.033%
CC(C)[C@H](NC(=O)[C@H](Cc1c[nH]c2ccccc12)NC(=O)[C@H](CCCNC(=N)N)NC(=O)[C@H](CCCNC(=N)N)NC(=O)[C@@H](NC(=O)[C@@H](NC(=O)[C@H](CCCNC(=N)N)NC(=O)[C@@H](NC(=O)[C@@H](NC(=O)[C@H](CCCNC(=N)N)NC(=O)[C@H](CCCNC(=N)N)NC(=O)[C@@H](NC(=O)[C@H](Cc1c[nH]c2ccccc12)NC(=O)[C@H](CCCNC(=N)N)NC(=O)[C@H](CCCNC(=N)N)NC(=O)[C@@H](NC(=O)[C@H](CCCNC(=N)N)NC(=O)[C@H](CCCNC(=N)N)NC(=O)[C@@H](NC(=O)[C@H](Cc1c[nH]c2ccccc12)NC(=O)[C@H](CCCNC(=N)N)NC(=O)[C@@H](N)CCCNC(=N)N)C(C)C)C(C)C)C(C)C)C(C)C)C(C)C)C(C)C)C(C)C)C(=O)N[C@@H](CCCNC(=N)N)C(=O)N[C@@H](CCCNC(=N)N)C(=O)O	item: liver	mice	intravenous, 30 mg/kg	baseline: body weight	organ weight	4.93%
